{"sequences": {"note": "Amino acid sequences for entries named in this document (tags omitted).", "UniProt Q9H1R3, whole entry": "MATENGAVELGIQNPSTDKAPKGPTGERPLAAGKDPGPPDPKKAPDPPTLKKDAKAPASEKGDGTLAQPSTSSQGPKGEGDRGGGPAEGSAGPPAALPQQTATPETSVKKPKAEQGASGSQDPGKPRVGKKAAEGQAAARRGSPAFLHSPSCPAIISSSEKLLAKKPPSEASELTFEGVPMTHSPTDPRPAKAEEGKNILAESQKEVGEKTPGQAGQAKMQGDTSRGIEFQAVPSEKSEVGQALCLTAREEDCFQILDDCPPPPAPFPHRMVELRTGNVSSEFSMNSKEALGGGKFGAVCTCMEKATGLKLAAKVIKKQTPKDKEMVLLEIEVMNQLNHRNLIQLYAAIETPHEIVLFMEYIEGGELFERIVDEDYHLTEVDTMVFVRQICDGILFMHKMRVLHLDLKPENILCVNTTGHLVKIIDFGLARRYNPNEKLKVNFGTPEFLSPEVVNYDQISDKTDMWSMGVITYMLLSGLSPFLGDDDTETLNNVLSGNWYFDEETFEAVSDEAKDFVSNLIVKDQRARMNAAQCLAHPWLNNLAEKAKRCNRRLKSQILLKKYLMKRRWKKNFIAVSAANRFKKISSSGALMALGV"}, "data": "Published values of several laboratories", "note": "Each line is one published result; not all experiments were run side by side. ± marks the error that the study gave."}
{"SMILES": "O=C(N/N=C/c1cc([N+](=O)[O-])ccc1O)c1ccc(O)cc1O", "target or system": "SK-OV-3 GFP knock-out", "assay": "cell viability, MTT", "quantity": "IC50", "result": "37.3 µM"}
{"SMILES": "CC#C/C(=N\\OC[C@H]1COCCN1)c1ccc2ncnc(Nc3ccc(OCc4cccc(F)c4)c(Cl)c3)c2c1", "target or system": "NCI-N87", "assay": "cell growth", "conditions": "together with: 2% serum albumin", "quantity": "IC50", "result": "0.0229 ± 0.0008 µM"}
{"SMILES": "COc1cc(CC(=O)NCC(NC(=O)C(CCCNC(=O)c2cccc(I)c2)NC(=O)C(Cc2ccc(C(F)(F)P(=O)(O)O)cc2)NC(=O)c2ccc(C)c(Br)c2)C(N)=O)ccc1O (stereo not shown)", "target or system": "primary mouse hepatocytes", "assay": "Western blot", "conditions": "concentration not given, together with: insulin 5 nM, 5 min", "quantity": "Erk1/2 activation", "result": "increased"}
{"SMILES": "COc1cc(OC)c2ccccc2c1C=C1C(=O)NC(=S)NC1=O", "target or system": "Jurkat NF-kB GFP reporter", "assay": "NF-kB reporter gene, inhibitor", "quantity": "IC50", "result": "3 µM"}
{"SMILES": "C=CC(=O)N1C[C@H](c2ccc(Br)cc2)[C@@H]1C(=O)Nc1cccc2cccnc12", "target or system": "22Rv1", "assay": "activity-based protein profiling, refers to: cysteine 321", "conditions": "5 µM, 3 h", "scale": "relative to: DMSO", "quantity": "loss of probe reactivity", "result": "~75%"}
{"SMILES": "CCN1CCN(Cc2ccc(NC(=O)c3ccc(C)c(/C=C/c4cnc5[nH]ccc5c4OC)c3)cc2C(F)(F)F)CC1", "target or system": "Myosin light chain kinase 2, skeletal/cardiac muscle (MYLK2, Homo sapiens, UniProt Q9H1R3)", "assay": "inhibitor", "conditions": "5 µM", "scale": "relative to: no inhibitor", "quantity": "log2 fold change", "result": -1.21}
{"SMILES": "CC[C@H](C)[C@H]1O[C@]2(CC[C@@H]1C)C[C@@H]1C[C@@H](C/C=C(\\C)[C@@H](O[C@H]3C[C@H](OC)[C@@H](O[C@H]4C[C@H](OC)[C@@H](O)[C@H](C)O4)[C@H](C)O3)[C@@H](C)/C=C/C=C3\\CO[C@@H]4[C@H](O)C(C)=C[C@@H](C(=O)O1)[C@]34O)O2", "target or system": "HEK293 FXR-bla", "assay": "reporter gene", "quantity": "IC50", "result": "38.2 ± 3.9 µM"}
{"SMILES": "Cc1ccc(S(=O)(=O)N(C)CC(=O)N(Cc2ccc(C3CCCCC3)cc2)c2ccc(C(=O)O)c(O)c2)cc1", "target or system": "Stat3-null MEFs", "assay": "cell viability, CyQuant", "quantity": "IC50", "result": "> 100 µM"}
{"SMILES": "C#Cc1ccc2c(c1)C(c1ccccc1F)=N[C@H](C)c1c(-c3nc(C(C)C)no3)ncn1-2", "target or system": "mouse microglia", "conditions": "50 µM, 14 h, together with: IFNγ/LPS", "quantity": "NO production", "result": "decreased"}
{"SMILES": "CCCCCCCCCCC/C=C/c1ccc2cc(CP(=O)(O)O)ccc2c1", "target or system": "MM1 rat hepatoma cells", "conditions": "concentration not given, 24 h, invasion of HUVEC monolayer, together with: 1.5 µM LPC", "quantity": "cell invasion", "result": "inhibited"}
